Measurements from different studies.
Every numbered part comes from another study and shows a few of its results, in no order. Positions count from the first letter of the parent shown.

Sample 1
Target: ABI1, truncated, D143A, DHFR fusion (Arabidopsis thaliana)
Technique: DHFR PCA, deep sequencing
Matrix: yeast
Notes: methotrexate growth selection, single substitutions
Together with: (+)-ABA 0.39 µM
Reference: wild-type fitted maximum
Reading: higher = stronger binding
Measurement: relative binding score
Starting sequence: PYL1, truncated, DHFR fusion (Arabidopsis thaliana); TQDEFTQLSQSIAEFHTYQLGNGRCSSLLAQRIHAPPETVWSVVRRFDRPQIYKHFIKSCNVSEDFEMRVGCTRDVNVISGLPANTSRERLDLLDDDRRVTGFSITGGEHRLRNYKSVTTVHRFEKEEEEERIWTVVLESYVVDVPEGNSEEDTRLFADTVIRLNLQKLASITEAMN; partner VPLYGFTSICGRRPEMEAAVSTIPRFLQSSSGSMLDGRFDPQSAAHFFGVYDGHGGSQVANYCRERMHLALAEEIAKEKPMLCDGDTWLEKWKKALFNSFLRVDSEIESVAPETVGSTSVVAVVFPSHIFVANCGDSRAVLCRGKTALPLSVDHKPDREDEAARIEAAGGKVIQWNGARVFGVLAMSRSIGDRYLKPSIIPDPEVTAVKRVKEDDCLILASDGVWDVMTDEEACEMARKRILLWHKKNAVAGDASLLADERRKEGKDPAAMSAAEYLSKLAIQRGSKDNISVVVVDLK
Change = L91N; value = -9.79%
Change = E129W; value = 18.5%
Change = G71M; value = -9.09%
Change = T39D; value = 25.2%
Change = T86R; value = 23.5%
Change = S171M; value = 39.1%
Change = N61P; value = -10.5%
Change = R98H; value = 5.48%
Change = Q19N; value = 47.7%
Change = G107C; value = 7.95%
Change = F124D; value = 28.6%
Change = R90C; value = -6.18%
Change = K116P; value = -16.2%
Change = C60A; value = -1.4%
Change = R113M; value = 41.4%

Sample 2
Target: Histone acetyltransferase KAT6A, winged helix 1, GST fusion (KAT6A, Homo sapiens, UniProt Q92794, residues 1-85)
Technique: protein binding microarray
Form: double-stranded DNA, one strand shown
Matrix: in vitro
Concentration: not given
Notes: 8-mer, flanks averaged, mean of 2 arrays, mostly near background
Reference: not given
Reading: higher = stronger binding
Measurement: E-score
Target sequence (chain): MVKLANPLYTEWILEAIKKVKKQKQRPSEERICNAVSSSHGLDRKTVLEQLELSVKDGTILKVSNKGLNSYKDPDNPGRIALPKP
Oligonucleotide = CCTGCTTA; value = -0.115
Oligonucleotide = ATCTATCG; value = -0.0923
Oligonucleotide = AAGAAGCC; value = 0.0459
Oligonucleotide = GACGGCAA; value = 0.355
Oligonucleotide = ATCATTAC; value = 0.0612
Oligonucleotide = CGGCCCGA; value = 0.299
Oligonucleotide = CGACAGCC; value = 0.109
Oligonucleotide = CCGCCGTA; value = 0.448
Oligonucleotide = CAAAAAAA; value = -0.0997
Oligonucleotide = CTTACCTA; value = -0.197
Oligonucleotide = CCTAACAC; value = -0.0678
Oligonucleotide = GTGCAAGA; value = -0.0167
Oligonucleotide = TACCTGGA; value = -0.0621
Oligonucleotide = CGACGGAC; value = 0.382
Oligonucleotide = TCCATAAA; value = -0.253
Oligonucleotide = TAGCTTGA; value = -0.193
Oligonucleotide = AGCTCTCA; value = -0.141

Sample 3
Target: NFE2, bZIP domain (human)
Technique: DHFR protein complementation
Matrix: yeast
Notes: single substitutions, most at no-binding floor
Reference: wild-type JUN-FOS pair
Reading: higher = stronger binding
Measurement: binding fitness
Starting sequence: JUN, bZIP domain (human); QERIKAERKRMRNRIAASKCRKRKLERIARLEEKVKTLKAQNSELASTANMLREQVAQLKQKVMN; partner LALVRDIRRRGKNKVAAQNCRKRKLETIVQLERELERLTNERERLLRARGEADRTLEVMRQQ
Change = N42H; value = -1.36 natural log
Change = L45I; value = -1.52 natural log
Change = E33S; value = -1.36 natural log
Change = S43W; value = -1.45 natural log
Change = E32T; value = -1.47 natural log
Change = S43F; value = -1.22 natural log
Change = L52N; value = -1.36 natural log
Change = T37P; value = -1.5 natural log
Change = I28G; value = -1.42 natural log
Change = L52I; value = -1.47 natural log
Change = A46V; value = -1.54 natural log
Change = I28S; value = -1.43 natural log
Change = L31N; value = -1.41 natural log
Change = L45Y; value = -1.45 natural log
Change = K39T; value = -1.24 natural log
Change = A49N; value = -1.46 natural log
Change = T37R; value = -1.27 natural log
Change = L38S; value = -1.53 natural log
Change = L59S; value = -1.51 natural log
Change = Q41G; value = -1.4 natural log

Sample 4
Target: Interferon regulatory factor 7, full length, phosphomimetic (IRF7, Homo sapiens, UniProt Q92985, residues 1-503, S471D/S472D/S475D/S476D/S477D/S483D/S484D/S487D)
Technique: protein-binding microarray
Form: double-stranded DNA, one strand shown
Matrix: in vitro
Concentration: 2200 nM top
Notes: 60-bp whole probe
Together with: salmon DNA 0.4 mg/ml
Reference: random background probes
Reading: higher = stronger binding
Measurement: fitted relative affinity
All sequences stand within: GCCTAGCAC … GTCTTGATTCGCTTGACGCTGCTG
Residues (chain): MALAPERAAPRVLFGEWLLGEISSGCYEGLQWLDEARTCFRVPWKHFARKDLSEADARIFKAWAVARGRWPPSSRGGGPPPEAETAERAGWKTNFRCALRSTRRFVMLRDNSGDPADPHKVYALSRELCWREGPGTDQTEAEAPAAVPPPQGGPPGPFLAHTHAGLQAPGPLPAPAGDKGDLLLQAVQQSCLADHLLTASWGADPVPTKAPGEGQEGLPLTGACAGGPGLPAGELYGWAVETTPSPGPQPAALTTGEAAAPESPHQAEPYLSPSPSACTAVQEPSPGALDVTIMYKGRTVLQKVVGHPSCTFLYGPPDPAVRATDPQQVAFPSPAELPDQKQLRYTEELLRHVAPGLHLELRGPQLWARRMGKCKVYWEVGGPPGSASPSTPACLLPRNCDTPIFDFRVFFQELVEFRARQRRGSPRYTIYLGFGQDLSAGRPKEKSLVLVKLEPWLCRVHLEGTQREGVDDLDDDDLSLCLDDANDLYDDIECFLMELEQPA
Oligonucleotide = TCAGGACTGCTTATCCTTTAGTGCTAG; value = 0.556 z-score
Oligonucleotide = GACGGTATCCTTATCCAGACGTGCTAG; value = 0.648 z-score
Oligonucleotide = TTAGGTCTCCTTATCCTATAGTGCTAG; value = 0.922 z-score
Oligonucleotide = TTAGGACTGGCGTTTCGGTTAGTGCTA; value = 1.39 z-score
Oligonucleotide = TTAGGACTGATTATCCTTTAGTGCTAG; value = -0.135 z-score
Oligonucleotide = GACGGTCTCGGGTTTCGGGACGTGCTA; value = 1.43 z-score
Oligonucleotide = GGCAATTTGAGTCACTGTGTGTGCTAG; value = -0.489 z-score
Oligonucleotide = GACGATTTAAGACTGGAGACGTGCTAG; value = -0.118 z-score
Oligonucleotide = GTAGGTATCGGTATCGGTTAGTGCTAG; value = 0.895 z-score
Oligonucleotide = CCAGTTCTGGGAAATATTTACGTGCTA; value = 0.0696 z-score
Oligonucleotide = AGAGAATGTGGAGAAATAGGGTGCTAG; value = -0.862 z-score
Oligonucleotide = GACGATATCGGGACTGGAGACGTGCTA; value = -0.0654 z-score
Oligonucleotide = TCACCTCTAGGTCTTCTACTGTGCTAG; value = 1.04 z-score
Oligonucleotide = GACGGTTTCGACTACCGGGACGTGCTA; value = 3.67 z-score
Oligonucleotide = AGTATGTTCACTATTTAAGGGTGCTAG; value = 0.397 z-score
Oligonucleotide = TCAGGTATCGGACTGGGTTAGTGCTAG; value = 0.483 z-score
Oligonucleotide = GAAGATTTCAATTAAAAAAAGTGCTAG; value = -1.42 z-score
Oligonucleotide = GCAGGGTATAGGCATTCCCTGTGCTAG; value = -1.05 z-score
Oligonucleotide = TTAAGTATCGGTCTCGGTTAGTGCTAG; value = 0.811 z-score
Oligonucleotide = TTAGATATCAGCTTCGATTAGTGCTAG; value = 0.239 z-score
Oligonucleotide = AGTTAATCCCTCTCAGGCATGTGCTAG; value = 0.389 z-score
Oligonucleotide = GACGGTCTCCTACTGCTGAAGTGCTAG; value = 0.585 z-score
Oligonucleotide = GACGAACTGGGGACTGAAGACGTGCTA; value = -0.0646 z-score
Oligonucleotide = GACGATATCGGGATTCGAGACGTGCTA; value = 0.155 z-score
Oligonucleotide = TACGATATCAGTTTCGAGACGTGCTAG; value = 3.72 z-score

Sample 5
Target: CCNF, cyclin fold, Cln2 fusion (human)
Technique: yeast growth competition, sequencing
Matrix: yeast
Notes: weak parent motif
Reference: not given
Reading: higher = stronger binding
Measurement: normalised enrichment score
Starting sequence: PKN2 docking peptide (human); VSAVQKLDFSDTM
Change = V1N; value = 0.865
Change = V4E; value = -0.332
Change = V1A; value = 0.578
Change = S10C; value = 0.502
Change = V4S; value = -0.587
Change = L7S; value = -0.0655
Change = A3H; value = 0.259
Change = T12V; value = 0.34
Change = D8R; value = 0.808
Change = S10K; value = -0.171
Change = M13C; value = 0.664
Change = D11G; value = 1.18
Change = L7W; value = -0.617
Change = K6E; value = -1.18
Change = V4G; value = -0.686
Change = K6G; value = 0.25
Change = V4M; value = 0.306
Change = S10W; value = 0.943

Sample 6
Target: CEP164, C-terminal peptide (human)
Technique: DHFR complementation, deep sequencing
Matrix: yeast
Notes: single substitutions, model-inferred values
Reference: wild type
Reading: higher = weaker binding
Measurement: binding free energy change
Starting sequence: PDZK1, PDZ domain 2 (human); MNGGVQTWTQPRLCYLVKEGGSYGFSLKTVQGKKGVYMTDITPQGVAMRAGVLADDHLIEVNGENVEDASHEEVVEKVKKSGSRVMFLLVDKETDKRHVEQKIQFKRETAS; partner HNRVKVYRF
Change = E19K; value = -0.118 kcal/mol
Change = G35I; value = 0.691 kcal/mol
Change = V99I; value = -0.0928 kcal/mol
Change = T94W; value = -0.0559 kcal/mol
Change = K77F; value = 0.272 kcal/mol
Change = M1P; value = -0.244 kcal/mol
Change = S22C; value = 0.275 kcal/mol
Change = Q101D; value = -0.0846 kcal/mol
Change = R97L; value = -0.149 kcal/mol
Change = G35P; value = 0.522 kcal/mol
Change = K33L; value = 0.181 kcal/mol
Change = D68C; value = 0.136 kcal/mol
Change = G3D; value = -0.0202 kcal/mol
Change = G32H; value = 0.3 kcal/mol
Change = V78M; value = 2.12 kcal/mol
Change = G4Y; value = 0.128 kcal/mol
Change = E93R; value = -0.141 kcal/mol
Change = W8L; value = -0.0839 kcal/mol
Change = S81I; value = 1.04 kcal/mol
Change = G32C; value = 0.486 kcal/mol
Change = K77M; value = -0.135 kcal/mol
Change = G51F; value = 0.636 kcal/mol
Change = F25H; value = 1.6 kcal/mol

Further values, each from its own experiment
Molecule = PhoQ, residues 284 288 289 292 302 303 SASVAL; target = PhoP, residues 12 14 15 18 19 LHSVQ (Escherichia coli, UniProt P23836); assay = Sort-seq, refers to: YFP reporter; test system = E. coli; setting = PhoQ-PhoP variant library, together with: 10 µM Mg2+; how to read = reference: high Mg2+ state, higher = stronger signaling; measurement = fold induction; value = 0.702

For quick reference, copied from above (sample 4):
Oligonucleotide = TTAGGACTGGCGTTTCGGTTAGTGCTA; value = 1.39 z-score
Oligonucleotide = TTAGGACTGATTATCCTTTAGTGCTAG; value = -0.135 z-score
Oligonucleotide = GACGGTCTCGGGTTTCGGGACGTGCTA; value = 1.43 z-score
Oligonucleotide = GGCAATTTGAGTCACTGTGTGTGCTAG; value = -0.489 z-score
Oligonucleotide = GACGATTTAAGACTGGAGACGTGCTAG; value = -0.118 z-score
Oligonucleotide = GTAGGTATCGGTATCGGTTAGTGCTAG; value = 0.895 z-score
Oligonucleotide = CCAGTTCTGGGAAATATTTACGTGCTA; value = 0.0696 z-score
Oligonucleotide = AGAGAATGTGGAGAAATAGGGTGCTAG; value = -0.862 z-score
Oligonucleotide = GACGATATCGGGACTGGAGACGTGCTA; value = -0.0654 z-score
Oligonucleotide = TCACCTCTAGGTCTTCTACTGTGCTAG; value = 1.04 z-score
Oligonucleotide = GACGGTTTCGACTACCGGGACGTGCTA; value = 3.67 z-score
Oligonucleotide = AGTATGTTCACTATTTAAGGGTGCTAG; value = 0.397 z-score
Oligonucleotide = TCAGGTATCGGACTGGGTTAGTGCTAG; value = 0.483 z-score
Oligonucleotide = GAAGATTTCAATTAAAAAAAGTGCTAG; value = -1.42 z-score
Oligonucleotide = GCAGGGTATAGGCATTCCCTGTGCTAG; value = -1.05 z-score
Oligonucleotide = TTAAGTATCGGTCTCGGTTAGTGCTAG; value = 0.811 z-score
Oligonucleotide = TTAGATATCAGCTTCGATTAGTGCTAG; value = 0.239 z-score
Oligonucleotide = AGTTAATCCCTCTCAGGCATGTGCTAG; value = 0.389 z-score
Oligonucleotide = GACGGTCTCCTACTGCTGAAGTGCTAG; value = 0.585 z-score
Oligonucleotide = GACGAACTGGGGACTGAAGACGTGCTA; value = -0.0646 z-score
